Measured values gathered from unrelated publications.
Parts stem from different laboratories: compare values within a part only. Changes are numbered by the printed parent chain.
UniProt Q99759, sequence (whole entry, looked up): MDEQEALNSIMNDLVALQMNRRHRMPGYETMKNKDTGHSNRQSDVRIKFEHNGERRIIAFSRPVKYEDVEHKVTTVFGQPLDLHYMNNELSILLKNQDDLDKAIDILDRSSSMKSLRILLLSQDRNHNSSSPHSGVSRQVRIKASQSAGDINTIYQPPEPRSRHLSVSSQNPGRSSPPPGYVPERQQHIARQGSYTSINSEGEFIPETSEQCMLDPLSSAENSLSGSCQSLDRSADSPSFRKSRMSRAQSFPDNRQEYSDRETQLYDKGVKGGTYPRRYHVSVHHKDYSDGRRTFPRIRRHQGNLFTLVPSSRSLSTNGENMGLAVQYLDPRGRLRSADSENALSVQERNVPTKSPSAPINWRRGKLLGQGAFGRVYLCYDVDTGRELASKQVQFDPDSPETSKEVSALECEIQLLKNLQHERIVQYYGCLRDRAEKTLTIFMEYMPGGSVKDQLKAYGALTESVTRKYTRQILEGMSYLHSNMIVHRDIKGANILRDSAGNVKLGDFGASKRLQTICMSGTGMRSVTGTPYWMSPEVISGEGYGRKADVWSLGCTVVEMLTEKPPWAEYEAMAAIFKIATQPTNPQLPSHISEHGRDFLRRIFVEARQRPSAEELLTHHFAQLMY
UniProt P42336, sequence (whole entry, unmodified, looked up): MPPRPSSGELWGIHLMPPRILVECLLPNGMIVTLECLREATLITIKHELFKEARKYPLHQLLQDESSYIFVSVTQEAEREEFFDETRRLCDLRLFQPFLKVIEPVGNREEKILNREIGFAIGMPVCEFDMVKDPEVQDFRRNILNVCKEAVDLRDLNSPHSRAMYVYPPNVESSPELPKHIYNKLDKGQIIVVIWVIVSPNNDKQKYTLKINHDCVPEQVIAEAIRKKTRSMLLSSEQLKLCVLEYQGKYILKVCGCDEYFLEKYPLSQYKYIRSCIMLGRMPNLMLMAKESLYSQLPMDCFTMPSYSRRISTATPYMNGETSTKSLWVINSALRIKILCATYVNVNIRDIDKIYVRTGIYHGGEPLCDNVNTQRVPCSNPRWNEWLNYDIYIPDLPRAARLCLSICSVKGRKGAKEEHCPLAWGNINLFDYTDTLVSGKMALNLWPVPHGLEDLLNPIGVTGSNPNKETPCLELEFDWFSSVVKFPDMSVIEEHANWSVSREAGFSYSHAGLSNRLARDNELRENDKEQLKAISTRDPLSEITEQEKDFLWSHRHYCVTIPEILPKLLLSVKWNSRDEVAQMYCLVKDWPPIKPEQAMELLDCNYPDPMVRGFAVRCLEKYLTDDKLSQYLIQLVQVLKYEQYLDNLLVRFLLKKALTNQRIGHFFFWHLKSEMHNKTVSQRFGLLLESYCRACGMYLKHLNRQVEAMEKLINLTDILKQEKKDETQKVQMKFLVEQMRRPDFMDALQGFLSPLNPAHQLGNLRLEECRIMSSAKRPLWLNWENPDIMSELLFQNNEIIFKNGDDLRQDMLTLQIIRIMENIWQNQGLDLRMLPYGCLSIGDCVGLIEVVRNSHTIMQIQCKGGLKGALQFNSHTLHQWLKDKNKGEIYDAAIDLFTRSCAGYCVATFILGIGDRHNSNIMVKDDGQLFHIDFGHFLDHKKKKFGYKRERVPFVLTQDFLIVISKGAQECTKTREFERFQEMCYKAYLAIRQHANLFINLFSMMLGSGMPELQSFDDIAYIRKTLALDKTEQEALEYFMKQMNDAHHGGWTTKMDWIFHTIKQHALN
UniProt Q15831, sequence (whole entry, looked up): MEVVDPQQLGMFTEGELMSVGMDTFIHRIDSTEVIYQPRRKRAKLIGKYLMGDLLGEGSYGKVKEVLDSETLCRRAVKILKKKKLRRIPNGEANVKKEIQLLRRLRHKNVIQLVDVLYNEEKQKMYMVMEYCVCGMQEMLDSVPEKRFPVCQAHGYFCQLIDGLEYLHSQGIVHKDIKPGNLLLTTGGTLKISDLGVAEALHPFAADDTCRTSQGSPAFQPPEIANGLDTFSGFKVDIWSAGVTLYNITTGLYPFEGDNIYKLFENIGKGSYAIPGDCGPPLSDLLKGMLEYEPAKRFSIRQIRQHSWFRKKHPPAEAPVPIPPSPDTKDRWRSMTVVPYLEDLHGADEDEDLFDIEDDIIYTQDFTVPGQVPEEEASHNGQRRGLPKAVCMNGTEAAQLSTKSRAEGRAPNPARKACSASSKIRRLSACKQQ
UniProt Q56UN5, sequence (whole entry, looked up): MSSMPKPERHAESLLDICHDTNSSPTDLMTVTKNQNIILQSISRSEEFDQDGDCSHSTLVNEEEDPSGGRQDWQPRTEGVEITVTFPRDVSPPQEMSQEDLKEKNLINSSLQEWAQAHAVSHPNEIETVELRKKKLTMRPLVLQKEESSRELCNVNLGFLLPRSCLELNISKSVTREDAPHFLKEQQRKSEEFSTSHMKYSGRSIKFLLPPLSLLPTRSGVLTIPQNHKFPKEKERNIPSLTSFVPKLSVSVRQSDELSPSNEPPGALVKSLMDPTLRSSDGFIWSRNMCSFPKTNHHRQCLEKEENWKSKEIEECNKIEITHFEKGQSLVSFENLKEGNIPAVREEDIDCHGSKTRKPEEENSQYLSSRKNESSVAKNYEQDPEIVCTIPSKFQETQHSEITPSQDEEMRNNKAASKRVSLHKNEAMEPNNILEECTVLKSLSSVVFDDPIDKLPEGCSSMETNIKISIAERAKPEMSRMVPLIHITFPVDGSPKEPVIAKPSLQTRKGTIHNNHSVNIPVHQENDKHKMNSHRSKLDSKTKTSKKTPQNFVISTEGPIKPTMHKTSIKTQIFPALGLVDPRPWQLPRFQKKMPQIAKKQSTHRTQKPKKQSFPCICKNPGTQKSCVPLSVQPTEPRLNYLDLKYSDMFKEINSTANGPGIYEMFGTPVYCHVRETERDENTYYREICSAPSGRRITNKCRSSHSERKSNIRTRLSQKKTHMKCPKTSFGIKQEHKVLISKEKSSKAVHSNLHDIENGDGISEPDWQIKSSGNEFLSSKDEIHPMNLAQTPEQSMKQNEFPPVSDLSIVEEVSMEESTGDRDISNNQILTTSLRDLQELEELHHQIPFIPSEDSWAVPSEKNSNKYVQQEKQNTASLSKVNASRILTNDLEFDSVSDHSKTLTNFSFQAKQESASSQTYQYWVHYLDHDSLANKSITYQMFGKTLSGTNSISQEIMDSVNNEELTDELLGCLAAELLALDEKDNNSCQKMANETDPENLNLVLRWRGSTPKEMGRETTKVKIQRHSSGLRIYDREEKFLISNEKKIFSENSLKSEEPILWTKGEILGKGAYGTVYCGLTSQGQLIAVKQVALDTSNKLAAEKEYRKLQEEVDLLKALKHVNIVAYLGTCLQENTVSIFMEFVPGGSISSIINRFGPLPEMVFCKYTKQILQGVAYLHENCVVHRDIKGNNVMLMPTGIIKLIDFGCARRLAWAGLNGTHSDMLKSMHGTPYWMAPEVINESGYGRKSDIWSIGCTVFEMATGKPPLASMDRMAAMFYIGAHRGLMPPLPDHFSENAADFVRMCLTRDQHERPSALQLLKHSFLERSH
UniProt P48730, sequence (whole entry, looked up): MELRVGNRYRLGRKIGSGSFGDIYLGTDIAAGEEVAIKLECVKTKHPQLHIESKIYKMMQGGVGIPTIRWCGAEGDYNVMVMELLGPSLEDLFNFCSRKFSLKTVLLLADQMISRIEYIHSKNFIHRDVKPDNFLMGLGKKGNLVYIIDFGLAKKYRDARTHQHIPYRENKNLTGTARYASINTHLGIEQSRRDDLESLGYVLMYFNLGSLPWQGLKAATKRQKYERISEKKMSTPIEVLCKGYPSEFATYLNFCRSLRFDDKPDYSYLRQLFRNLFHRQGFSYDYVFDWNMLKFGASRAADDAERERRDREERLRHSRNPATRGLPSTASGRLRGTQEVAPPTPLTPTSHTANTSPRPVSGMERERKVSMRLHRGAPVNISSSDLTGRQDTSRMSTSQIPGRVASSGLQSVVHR
UniProt P29597, sequence (whole entry, looked up): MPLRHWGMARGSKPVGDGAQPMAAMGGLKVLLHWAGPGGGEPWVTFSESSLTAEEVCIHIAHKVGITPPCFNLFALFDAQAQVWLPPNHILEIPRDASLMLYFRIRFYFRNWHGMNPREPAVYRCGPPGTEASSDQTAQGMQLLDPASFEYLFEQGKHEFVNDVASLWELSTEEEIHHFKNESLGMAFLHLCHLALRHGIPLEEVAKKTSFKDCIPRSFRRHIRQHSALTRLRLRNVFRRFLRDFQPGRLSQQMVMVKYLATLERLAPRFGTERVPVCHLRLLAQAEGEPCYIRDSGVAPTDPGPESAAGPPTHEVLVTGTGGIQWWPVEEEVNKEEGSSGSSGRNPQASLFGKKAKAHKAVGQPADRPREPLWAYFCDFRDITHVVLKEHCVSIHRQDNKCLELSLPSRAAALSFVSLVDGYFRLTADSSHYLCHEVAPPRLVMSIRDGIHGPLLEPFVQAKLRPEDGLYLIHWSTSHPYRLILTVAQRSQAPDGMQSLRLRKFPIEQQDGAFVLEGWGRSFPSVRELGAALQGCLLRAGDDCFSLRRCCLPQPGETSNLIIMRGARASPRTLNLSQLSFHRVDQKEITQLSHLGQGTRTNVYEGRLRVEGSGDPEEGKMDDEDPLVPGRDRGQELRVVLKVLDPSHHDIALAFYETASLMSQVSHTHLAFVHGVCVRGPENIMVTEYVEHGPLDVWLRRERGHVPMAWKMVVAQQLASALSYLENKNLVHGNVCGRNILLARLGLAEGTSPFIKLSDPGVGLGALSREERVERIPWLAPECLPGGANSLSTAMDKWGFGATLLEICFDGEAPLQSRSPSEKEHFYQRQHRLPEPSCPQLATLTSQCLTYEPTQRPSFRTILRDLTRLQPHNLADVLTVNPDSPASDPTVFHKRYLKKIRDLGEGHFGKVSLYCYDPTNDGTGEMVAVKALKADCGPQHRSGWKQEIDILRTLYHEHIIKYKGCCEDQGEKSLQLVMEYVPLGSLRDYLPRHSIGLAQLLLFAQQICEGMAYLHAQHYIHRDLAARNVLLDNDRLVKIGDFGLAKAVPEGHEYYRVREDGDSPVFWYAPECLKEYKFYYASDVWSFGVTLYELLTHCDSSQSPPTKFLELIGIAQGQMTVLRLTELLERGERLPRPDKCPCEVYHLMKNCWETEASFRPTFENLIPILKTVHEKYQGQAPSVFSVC

Series 1
Change: G81R
Target: ABI1, truncated, D143A, DHFR fusion (Arabidopsis thaliana)
Method: DHFR PCA, deep sequencing
Medium: yeast
Notes: methotrexate growth selection, single substitutions
Baseline: wild-type fitted maximum
Direction: higher = stronger binding
Parent: PYL1, truncated, DHFR fusion (Arabidopsis thaliana); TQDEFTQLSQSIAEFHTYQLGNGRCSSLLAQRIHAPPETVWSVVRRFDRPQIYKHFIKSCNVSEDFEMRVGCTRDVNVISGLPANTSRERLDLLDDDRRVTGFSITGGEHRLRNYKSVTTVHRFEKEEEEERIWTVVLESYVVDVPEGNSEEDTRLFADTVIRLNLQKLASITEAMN
For with: (+)-ABA 0.11 µM: “relative binding score” read -1.42%.
It gave -5.51% for “relative binding score” (with: (+)-ABA 17 µM).
For with: (+)-ABA 200 µM: “relative binding score” read 20.5%.
For with: (+)-ABA 4.8 µM: “relative binding score” read 1.68%.
It gave -2.54% for “relative binding score” (with: (+)-ABA 1.4 µM).
It gave 5.5% for “relative binding score” (with: (+)-ABA 58 µM).

Series 2
Host: human
Medium: microsomes or S9
Concentration: 2 µM
Time: 0.5 h
`O=C(Cn1cc(-c2ccccc2)ncc1=O)NCCn1ccc2ccc(Br)cc21` gave a remaining compound of 5.11%.
`COCCCNC(=O)C(C)NS(=O)(=O)c1ccc(Br)cc1` (stereo not shown) has a remaining compound of over 99%.
`Cc1c(C(=O)N[C@H]2CCOC[C@H]2C2CCOCC2)c2cc(O)ccc2n1C` gave a remaining compound of 69.1%.
`CCOC(=O)C1(Cc2ccccc2)Nc2ccccc2C1=O` (stereo not shown) has a remaining compound of 0.684%.
`N#Cc1c(-c2ccccc2)cc(O)n2c1nc1ccccc12` gave a remaining compound of 59%.
The remaining compound of `CC1CC(=O)NN=C1c1ccc(-n2ccnc2)c(F)c1` (stereo not shown) is reported as 105%.
For `CSC1CC2CCC(C1)N2C(=O)c1cc(C2CC2)on1` (stereo not shown), the remaining compound was 30.6%.
`CN(C(=O)CN1N=C(c2ccccc2)Cn2c(cc3ccccc32)C1=O)C1CCCCC1` has a remaining compound of 1.65%.
`Cc1nc2c(NC3CCN(S(=O)(=O)C4CC4)CC3)cccn2n1` has a remaining compound of over 100%.
`Nc1ncc(Br)cc1S(=O)(=O)NCCC(=O)NCc1ccco1` gave a remaining compound of over 100%.
`CCCNC(=O)C1CN(CC(=O)Nc2ccccc2C(=O)NCc2ccccc2)c2ccccc2O1` (stereo not shown) gave a remaining compound of 2.98%.
`CCOC(=O)/C(=C/OC)n1c(COc2ccc(C)cc2C)noc1=O` has a remaining compound of 1.03%.
`CCOC(=O)c1[nH]c(C)c(C(=O)CN2C(=O)NC(C)(C)C2=O)c1C` gave a remaining compound of 34.5%.
`COc1ccc(C)cc1NC(=O)c1[nH]c(C)c(S(=O)(=O)N2CCCC2)c1C` has a remaining compound of 0.999%.
The remaining compound of `Cc1ccc(S(=O)(=O)C(C#N)c2nc3ccccc3nc2N2CC(C)OC(C)C2)cc1C` (stereo not shown) is reported as 5.14%.
`CCc1ccc(S(=O)(=O)NCc2cccc(CS(C)(=O)=O)c2)s1` gave a remaining compound of 17.4%.

Series 3
SMILES: O=C(Nc1ccc(Oc2ccc(F)cc2)cc1)N1CCc2ncccc2[C@H]1c1ccc(F)cc1
Effect on: cell-free assay
Method: competition with immobilised ligand
Concentration: 1 µM
Ribosomal protein S6 kinase alpha-6, C-terminal kinase domain (RPS6KA6, Homo sapiens, UniProt Q9UK32) — remaining binding: 95%.
For MAP3K19 (Homo sapiens, UniProt Q56UN5): remaining binding read 88%.
The remaining binding was 100% (CDK13 (Homo sapiens, UniProt Q14004)).
For MAP3K3 (Homo sapiens, UniProt Q99759): remaining binding read 87%.
It gave 96% for remaining binding (EGFR (Homo sapiens, UniProt P00533, L858R)).
For Non-receptor tyrosine-protein kinase TYK2, JH1 (TYK2, Homo sapiens, UniProt P29597): remaining binding read 95%.
For PIK3CA (Homo sapiens, UniProt P42336, Q546K): remaining binding read 75%.
EPHA8 (Homo sapiens, UniProt P29322) — remaining binding: 92%.
It gave 61% for remaining binding (STK11 (Homo sapiens, UniProt Q15831)).
MAP4K2 (Homo sapiens, UniProt Q12851) — remaining binding: 95%.
For CSNK1D (Homo sapiens, UniProt P48730): remaining binding read 90%.
SIK2 (Homo sapiens, UniProt Q9H0K1) — remaining binding: 100%.
For MAP2K4 (Homo sapiens, UniProt P45985): remaining binding read 86%.
For MAP3K4 (Homo sapiens, UniProt Q9Y6R4): remaining binding read 100%.

Mixed results
Method: cross-linking MS
For `ILF2 (Homo sapiens, UniProt Q12905)`, interaction screen read “cross-linked” (ILF3 (Homo sapiens, UniProt Q12906); hits only).
`UTP14A (Homo sapiens, UniProt Q9BVJ6)`: cross-linked residues “E131 to K445” (DCAF13 (Homo sapiens, UniProt Q9NV06); cell fractions; with: DMTMM).
`RRP12 (Homo sapiens, UniProt Q5JTH9)` — result for cross-linked residues: “S515 to K536” (WDR3 (Homo sapiens, UniProt Q9UNX4); cell fractions; with: DSSO).
`FUOM (Homo sapiens, UniProt A2VDF0)` — result for cross-linked residues: “K5 to E74” (PTBP1 (Homo sapiens, UniProt P26599); cell fractions; with: DMTMM).

A few entries again (series 2):
For `CSC1CC2CCC(C1)N2C(=O)c1cc(C2CC2)on1` (stereo not shown), the remaining compound was 30.6%.
`CN(C(=O)CN1N=C(c2ccccc2)Cn2c(cc3ccccc32)C1=O)C1CCCCC1` has a remaining compound of 1.65%.
`Cc1nc2c(NC3CCN(S(=O)(=O)C4CC4)CC3)cccn2n1` has a remaining compound of over 100%.
